{"data": "Assay results pooled from the literature", "note": "A part holds a random share of what one study measured. Several values in a cell are separate wells, animals, samples, runs or records.", "chain of UniProt Q15303 (whole entry, looked up)": "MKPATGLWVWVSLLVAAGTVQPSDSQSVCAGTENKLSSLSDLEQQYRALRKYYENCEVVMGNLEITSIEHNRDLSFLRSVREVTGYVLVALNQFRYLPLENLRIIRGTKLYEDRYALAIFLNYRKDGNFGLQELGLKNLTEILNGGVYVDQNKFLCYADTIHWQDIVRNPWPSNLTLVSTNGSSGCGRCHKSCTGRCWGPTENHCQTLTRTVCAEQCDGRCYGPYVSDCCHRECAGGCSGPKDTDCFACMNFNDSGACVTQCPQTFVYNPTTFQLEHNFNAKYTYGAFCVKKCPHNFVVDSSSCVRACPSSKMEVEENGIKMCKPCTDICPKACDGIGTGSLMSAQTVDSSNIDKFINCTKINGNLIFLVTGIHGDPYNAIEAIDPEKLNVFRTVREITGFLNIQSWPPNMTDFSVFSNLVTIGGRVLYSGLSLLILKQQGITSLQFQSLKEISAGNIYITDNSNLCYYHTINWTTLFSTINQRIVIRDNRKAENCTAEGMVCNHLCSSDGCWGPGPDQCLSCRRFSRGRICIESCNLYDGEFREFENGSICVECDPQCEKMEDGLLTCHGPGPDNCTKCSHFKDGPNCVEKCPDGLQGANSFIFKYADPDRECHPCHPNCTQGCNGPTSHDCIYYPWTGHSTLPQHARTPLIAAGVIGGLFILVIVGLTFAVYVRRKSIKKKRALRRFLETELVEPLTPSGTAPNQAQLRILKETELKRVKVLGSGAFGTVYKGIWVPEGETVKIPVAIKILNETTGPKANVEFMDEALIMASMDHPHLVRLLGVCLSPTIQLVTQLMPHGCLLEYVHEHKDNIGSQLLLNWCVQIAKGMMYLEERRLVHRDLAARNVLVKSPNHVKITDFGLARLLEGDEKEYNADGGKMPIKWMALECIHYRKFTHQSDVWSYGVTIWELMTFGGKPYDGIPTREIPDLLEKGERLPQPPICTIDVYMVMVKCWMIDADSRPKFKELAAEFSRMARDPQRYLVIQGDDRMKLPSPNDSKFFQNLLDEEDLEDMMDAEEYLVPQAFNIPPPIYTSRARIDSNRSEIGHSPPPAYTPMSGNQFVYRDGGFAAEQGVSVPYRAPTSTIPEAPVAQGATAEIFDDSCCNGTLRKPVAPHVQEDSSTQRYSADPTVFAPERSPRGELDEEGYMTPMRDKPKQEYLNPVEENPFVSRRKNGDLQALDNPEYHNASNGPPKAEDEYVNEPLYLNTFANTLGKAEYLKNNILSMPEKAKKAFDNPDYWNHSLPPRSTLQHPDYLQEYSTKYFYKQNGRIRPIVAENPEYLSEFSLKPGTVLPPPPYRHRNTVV", "chain of UniProt Q9H0K1 (whole entry, looked up)": "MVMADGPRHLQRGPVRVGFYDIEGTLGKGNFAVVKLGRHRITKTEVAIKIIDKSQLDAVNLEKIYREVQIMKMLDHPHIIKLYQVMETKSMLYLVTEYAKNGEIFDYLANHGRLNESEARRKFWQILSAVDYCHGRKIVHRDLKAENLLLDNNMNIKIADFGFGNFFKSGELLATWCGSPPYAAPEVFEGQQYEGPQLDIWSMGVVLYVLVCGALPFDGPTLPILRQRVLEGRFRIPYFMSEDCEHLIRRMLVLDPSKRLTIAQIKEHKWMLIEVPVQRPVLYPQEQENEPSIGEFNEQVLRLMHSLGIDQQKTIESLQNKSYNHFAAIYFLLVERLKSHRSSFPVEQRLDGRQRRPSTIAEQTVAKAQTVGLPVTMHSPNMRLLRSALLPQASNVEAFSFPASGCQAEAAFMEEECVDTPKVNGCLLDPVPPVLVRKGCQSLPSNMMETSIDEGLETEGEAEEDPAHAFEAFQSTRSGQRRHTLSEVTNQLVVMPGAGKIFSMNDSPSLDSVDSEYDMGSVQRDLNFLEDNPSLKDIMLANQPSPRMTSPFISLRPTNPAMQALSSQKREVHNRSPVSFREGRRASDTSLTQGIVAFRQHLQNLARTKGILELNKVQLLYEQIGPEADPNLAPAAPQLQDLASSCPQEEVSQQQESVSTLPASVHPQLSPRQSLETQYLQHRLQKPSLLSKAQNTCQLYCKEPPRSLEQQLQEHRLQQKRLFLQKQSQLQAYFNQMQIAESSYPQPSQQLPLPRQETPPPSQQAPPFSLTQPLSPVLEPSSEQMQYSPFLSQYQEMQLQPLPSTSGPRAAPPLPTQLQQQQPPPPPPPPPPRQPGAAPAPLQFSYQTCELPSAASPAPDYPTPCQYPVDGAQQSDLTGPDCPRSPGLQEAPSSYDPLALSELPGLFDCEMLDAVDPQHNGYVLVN", "chain of UniProt Q96SB4 (whole entry, looked up)": "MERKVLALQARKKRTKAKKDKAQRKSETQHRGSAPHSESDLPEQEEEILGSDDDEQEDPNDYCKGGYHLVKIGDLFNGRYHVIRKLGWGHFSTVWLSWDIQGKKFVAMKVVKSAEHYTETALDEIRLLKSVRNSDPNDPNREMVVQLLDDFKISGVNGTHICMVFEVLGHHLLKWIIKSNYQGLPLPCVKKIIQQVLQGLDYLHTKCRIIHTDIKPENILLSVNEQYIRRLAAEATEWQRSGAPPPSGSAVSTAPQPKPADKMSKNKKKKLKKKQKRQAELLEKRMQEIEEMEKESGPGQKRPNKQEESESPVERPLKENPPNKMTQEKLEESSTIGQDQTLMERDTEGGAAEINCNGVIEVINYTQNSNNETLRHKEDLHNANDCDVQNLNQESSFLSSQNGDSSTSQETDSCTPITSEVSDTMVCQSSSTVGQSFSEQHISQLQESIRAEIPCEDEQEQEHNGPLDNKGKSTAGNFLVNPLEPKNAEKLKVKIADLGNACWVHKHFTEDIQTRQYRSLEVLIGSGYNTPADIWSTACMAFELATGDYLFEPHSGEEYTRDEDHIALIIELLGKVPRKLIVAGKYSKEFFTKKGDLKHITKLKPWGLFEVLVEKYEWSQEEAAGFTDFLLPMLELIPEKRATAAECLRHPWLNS", "chain of UniProt Q96D53 (whole entry, looked up)": "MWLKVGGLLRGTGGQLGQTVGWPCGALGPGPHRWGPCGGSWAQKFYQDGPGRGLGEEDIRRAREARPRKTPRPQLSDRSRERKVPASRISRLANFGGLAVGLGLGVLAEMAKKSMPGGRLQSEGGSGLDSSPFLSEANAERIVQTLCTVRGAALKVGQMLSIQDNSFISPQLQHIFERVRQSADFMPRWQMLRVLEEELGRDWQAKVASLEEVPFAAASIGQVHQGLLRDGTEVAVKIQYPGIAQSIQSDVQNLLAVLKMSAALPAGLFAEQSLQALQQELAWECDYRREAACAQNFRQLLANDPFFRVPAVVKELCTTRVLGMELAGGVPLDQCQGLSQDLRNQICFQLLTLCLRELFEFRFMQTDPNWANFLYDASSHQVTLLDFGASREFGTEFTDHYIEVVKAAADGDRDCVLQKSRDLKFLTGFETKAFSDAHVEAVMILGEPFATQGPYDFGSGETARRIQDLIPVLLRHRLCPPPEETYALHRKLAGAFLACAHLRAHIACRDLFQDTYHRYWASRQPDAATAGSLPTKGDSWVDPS", "chain of UniProt P54762 (whole entry, looked up)": "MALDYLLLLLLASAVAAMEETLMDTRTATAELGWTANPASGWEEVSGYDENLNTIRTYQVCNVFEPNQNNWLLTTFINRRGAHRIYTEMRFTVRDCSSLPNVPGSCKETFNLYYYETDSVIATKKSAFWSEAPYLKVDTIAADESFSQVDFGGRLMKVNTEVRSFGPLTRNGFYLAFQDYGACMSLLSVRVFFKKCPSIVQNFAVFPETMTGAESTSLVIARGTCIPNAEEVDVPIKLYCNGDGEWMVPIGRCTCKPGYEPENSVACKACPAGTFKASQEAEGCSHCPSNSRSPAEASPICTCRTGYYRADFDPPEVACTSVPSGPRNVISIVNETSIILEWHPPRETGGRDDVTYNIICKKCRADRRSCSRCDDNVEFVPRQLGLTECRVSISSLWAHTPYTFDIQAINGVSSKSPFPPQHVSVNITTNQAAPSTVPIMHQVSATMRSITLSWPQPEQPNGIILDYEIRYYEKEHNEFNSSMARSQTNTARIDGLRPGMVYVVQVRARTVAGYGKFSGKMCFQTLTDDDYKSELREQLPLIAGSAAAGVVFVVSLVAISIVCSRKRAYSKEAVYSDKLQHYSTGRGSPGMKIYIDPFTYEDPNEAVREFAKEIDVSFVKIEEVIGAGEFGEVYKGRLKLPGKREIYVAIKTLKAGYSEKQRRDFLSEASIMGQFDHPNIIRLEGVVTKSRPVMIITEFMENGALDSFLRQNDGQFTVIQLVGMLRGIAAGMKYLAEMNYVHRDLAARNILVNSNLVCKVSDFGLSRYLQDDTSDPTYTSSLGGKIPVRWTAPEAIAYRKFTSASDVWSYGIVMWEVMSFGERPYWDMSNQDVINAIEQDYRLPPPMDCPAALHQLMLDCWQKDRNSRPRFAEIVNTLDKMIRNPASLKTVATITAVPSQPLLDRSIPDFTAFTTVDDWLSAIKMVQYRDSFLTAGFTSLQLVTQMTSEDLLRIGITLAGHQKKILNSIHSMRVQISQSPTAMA", "chain of UniProt Q16539 (whole entry, looked up)": "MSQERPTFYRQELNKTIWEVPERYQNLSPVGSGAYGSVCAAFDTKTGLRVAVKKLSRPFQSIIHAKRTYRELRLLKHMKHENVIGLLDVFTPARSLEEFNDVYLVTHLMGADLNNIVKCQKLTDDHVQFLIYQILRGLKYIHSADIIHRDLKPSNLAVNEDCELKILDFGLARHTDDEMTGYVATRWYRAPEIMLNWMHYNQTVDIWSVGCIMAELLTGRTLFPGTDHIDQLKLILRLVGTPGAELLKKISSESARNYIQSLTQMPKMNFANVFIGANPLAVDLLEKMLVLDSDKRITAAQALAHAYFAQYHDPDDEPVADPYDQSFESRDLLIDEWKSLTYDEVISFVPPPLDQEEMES"}
{"data": "Series 1", "Compound": "CCCOc1ccc([C@H]2[C@H](C(=O)O)[C@@H](c3ccc4c(c3)OCO4)CN2CC(=O)Nc2c(CC)cccc2CC)cc1", "effect on": "cell-free assay", "method": "competition with immobilised ligand", "concentration": "1 µM"}
{"target": "VRK2 (Homo sapiens, UniProt Q86Y07)", "remaining binding [%]": 61}
{"target": "MAPK14 (Homo sapiens, UniProt Q16539)", "remaining binding [%]": 99}
{"target": "SRPK1 (Homo sapiens, UniProt Q96SB4)", "remaining binding [%]": 95}
{"target": "MKNK1 (Homo sapiens, UniProt Q9BUB5)", "remaining binding [%]": 65}
{"target": "PIK3CA (Homo sapiens, UniProt P42336, E545K)", "remaining binding [%]": 61}
{"target": "EGFR (Homo sapiens, UniProt P00533, L858R/T790M)", "remaining binding [%]": 75}
{"target": "MET (Homo sapiens, UniProt P08581, Y1235D)", "remaining binding [%]": 100}
{"target": "WNK1 (Homo sapiens, UniProt Q9H4A3)", "remaining binding [%]": 89}
{"target": "STK36 (Homo sapiens, UniProt Q9NRP7)", "remaining binding [%]": 98}
{"target": "EPHB1 (Homo sapiens, UniProt P54762)", "remaining binding [%]": 100}
{"target": "MET (Homo sapiens, UniProt P08581, M1250T)", "remaining binding [%]": 71}
{"target": "COQ8B (Homo sapiens, UniProt Q96D53)", "remaining binding [%]": 90}
{"target": "SIK2 (Homo sapiens, UniProt Q9H0K1)", "remaining binding [%]": 89}
{"target": "ERBB4 (Homo sapiens, UniProt Q15303)", "remaining binding [%]": 100}
{"data": "Series 2", "SMILES": "CC(C)n1cnc(-c2ccc(F)cc2)c1-c1ncc(C(=O)Nc2ccc(N3CCN(C)CC3)cc2)[nH]1", "method": "phase 2a trial", "species": "idiopathic pulmonary fibrosis patients"}
{"dose": "60 mg once daily", "notes": "adverse event grade 2", "patients with abdominal distension": "0%"}
{"dose": "30 mg once daily", "notes": "adverse event grade 4", "patients with abdominal distension": "0%"}
{"dose": "dose not given", "notes": "adverse event grade 3, all dose arms pooled", "patients with abdominal distension": "0%"}
{"data": "Series 3", "species": "human", "matrix": "microsomes or S9", "concentration": "2 µM", "time": "0.5 h"}
{"Compound": "Cc1cccc(NC(=O)Nc2ccc(Nc3ccc(-n4cccn4)nn3)cc2)c1", "remaining compound [%]": 31.5}
{"Compound": "COc1ccc(C(=O)N2CCC(n3c(C)cnc3C3CCC3)C2)cc1 (stereo not shown)", "remaining compound [%]": 72.9}
{"Compound": "CN(C(=O)c1ccc(C(=O)c2ccccc2)cc1)c1ccccc1", "remaining compound [%]": 0.514}
{"data": "Series 4", "cell line": "mouse MPNST tumor cells", "method": "high-content immunofluorescence imaging", "item": "nuclear SOX9", "concentration": "10 µM", "time": "12 h", "notes": "mean of 2 replicates", "reference": "DMSO control", "reading": "higher = more nuclear SOX9"}
{"SMILES": "O=C(O)[C@H]1/C(=C/CO)O[C@@H]2CC(=O)N21", "nuclear SOX9 intensity": "93.7 % of DMSO"}
{"SMILES": "CCc1c(C(=O)NCCc2ccc(N3CCCCC3)cc2)[nH]c2ccc(Cl)cc12", "nuclear SOX9 intensity": "108 % of DMSO"}
{"SMILES": "CC(=O)c1cc(-c2ccccc2OCC2CC2)c2ncccn12", "nuclear SOX9 intensity": "124 % of DMSO"}
{"data": "Series 5", "cell line": "UACC-903 melanoma"}
{"SMILES": "COCCCC/C(=N\\OCCN)c1ccc(C(F)(F)F)cc1", "IC50 [µM]": 28.6}
{"SMILES": "CN(C)CC/C=C1/c2ccccc2Sc2ccc(Cl)cc21", "IC50 [µM]": 15.8}
{"SMILES": "CNCCCC1c2ccccc2C=Cc2ccccc21", "IC50 [µM]": 10.8}
{"SMILES": "CN1CCc2c(c3ccccc3n2Cc2ccccc2)C1", "IC50 [µM]": 42.1}
{"data": "Series 6", "Structure (SMILES)": "c1ccc(Oc2ccc(Nc3c4c(nc5ccccc35)CCC4)cc2)cc1", "method": "resazurin"}
{"cell line": "HEK293", "concentration": "33.32 µM", "notes": "10% serum", "cytotoxicity": "96% and 89%"}
{"cell line": "RAW264.7", "concentration": "0.66 µM", "cytotoxicity": "-6% and -7%"}
{"cell line": "HepG2", "concentration": "0.66 µM", "time": "48 h", "cytotoxicity": "2%"}
{"cell line": "RAW264.7", "concentration": "0.0166 µM", "cytotoxicity": "-7% and -1%"}
